Published values pooled from the literature.
Protocols differ between the studies behind these lines. Numbers after ± are the reported error. Non-standard residues stand in square brackets, D forms with d. Square brackets hold non-standard residues; d marks the D form. Ends that are not written are not given here. No end group written: not given here. *: point of attachment.
BIRC5: BIRC5 (Homo sapiens, UniProt O15392)
UniProt O15392, sequence (whole entry, looked up): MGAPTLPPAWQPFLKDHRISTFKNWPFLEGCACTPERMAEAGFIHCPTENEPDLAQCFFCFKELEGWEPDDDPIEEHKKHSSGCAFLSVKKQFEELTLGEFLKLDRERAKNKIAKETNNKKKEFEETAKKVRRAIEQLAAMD
RHO Meta II: RHO Meta II, phosphorylated, retinal (Bos taurus, UniProt P02699)
T1: STAG2/RAD21 STAG2 80-1060, RAD21 281-420 (Homo sapiens); chain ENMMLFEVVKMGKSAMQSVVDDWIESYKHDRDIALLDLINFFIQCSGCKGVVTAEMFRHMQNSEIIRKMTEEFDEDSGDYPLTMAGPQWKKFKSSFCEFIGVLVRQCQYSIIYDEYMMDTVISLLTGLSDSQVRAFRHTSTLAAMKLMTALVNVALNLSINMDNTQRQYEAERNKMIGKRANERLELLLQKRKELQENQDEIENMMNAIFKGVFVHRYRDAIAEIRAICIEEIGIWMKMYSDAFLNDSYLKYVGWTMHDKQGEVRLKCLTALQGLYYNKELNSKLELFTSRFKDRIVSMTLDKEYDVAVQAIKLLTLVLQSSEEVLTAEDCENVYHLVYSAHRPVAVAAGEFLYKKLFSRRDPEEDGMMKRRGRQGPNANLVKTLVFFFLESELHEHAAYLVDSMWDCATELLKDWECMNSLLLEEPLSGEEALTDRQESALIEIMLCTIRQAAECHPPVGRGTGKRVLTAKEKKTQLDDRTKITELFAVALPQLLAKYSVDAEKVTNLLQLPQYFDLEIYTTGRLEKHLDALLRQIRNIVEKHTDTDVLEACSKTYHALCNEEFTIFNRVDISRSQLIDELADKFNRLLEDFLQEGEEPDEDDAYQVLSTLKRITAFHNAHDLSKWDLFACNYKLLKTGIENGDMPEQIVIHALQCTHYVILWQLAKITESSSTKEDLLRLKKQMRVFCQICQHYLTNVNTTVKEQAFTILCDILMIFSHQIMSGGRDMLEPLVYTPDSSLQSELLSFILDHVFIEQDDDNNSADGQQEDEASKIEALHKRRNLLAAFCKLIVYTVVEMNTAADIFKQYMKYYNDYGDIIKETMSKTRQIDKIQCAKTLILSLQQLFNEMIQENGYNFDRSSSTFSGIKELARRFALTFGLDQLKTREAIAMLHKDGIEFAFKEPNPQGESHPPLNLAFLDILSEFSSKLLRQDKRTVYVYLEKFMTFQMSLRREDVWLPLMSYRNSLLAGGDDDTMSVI; chain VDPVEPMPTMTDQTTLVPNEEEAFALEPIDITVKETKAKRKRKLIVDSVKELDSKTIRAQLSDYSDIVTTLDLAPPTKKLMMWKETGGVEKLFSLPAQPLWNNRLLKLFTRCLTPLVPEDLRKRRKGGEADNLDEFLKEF
B1: colicin N T and R domains (Escherichia coli); chain MGSNGADNAHNNAFGGGKNPGIGNTSGAGSNGSASSNRGNSNGWSWSNKPHKNDGFHSDGSYHITFHGDNNSKPKPGGNSGNRGNNGDGASAKVGEITITPDNSKPGRYISSNPEYSLLAKLIDAESIKGTEVYTFHTRKGQYVKVTVPDSNIDKMRVDYVNWKGPKYNNKLVKRFVSQFLL
B2: lin-42 402-475 (Caenorhabditis elegans, UniProt Q65ZG8); chain GAMDPEFLSYTQINCLENVHRLLKSQSRPESPAKQDEPFDEKKYPPQTPLTREALTLHTKRFEDEYKDTWCRRLKRLSDDV
UniProt P48730, sequence (whole entry, unmodified, looked up): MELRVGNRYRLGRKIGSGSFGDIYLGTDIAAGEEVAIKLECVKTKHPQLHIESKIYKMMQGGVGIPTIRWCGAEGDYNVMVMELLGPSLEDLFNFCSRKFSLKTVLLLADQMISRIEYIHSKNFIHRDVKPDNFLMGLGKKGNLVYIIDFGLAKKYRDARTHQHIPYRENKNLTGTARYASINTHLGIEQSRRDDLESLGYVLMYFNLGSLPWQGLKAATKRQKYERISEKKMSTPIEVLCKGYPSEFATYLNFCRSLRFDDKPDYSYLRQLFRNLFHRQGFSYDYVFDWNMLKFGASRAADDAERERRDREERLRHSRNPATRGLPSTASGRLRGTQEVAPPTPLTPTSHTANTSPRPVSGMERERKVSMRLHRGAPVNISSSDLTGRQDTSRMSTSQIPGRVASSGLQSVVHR
UniProt O95166, sequence (whole entry, looked up): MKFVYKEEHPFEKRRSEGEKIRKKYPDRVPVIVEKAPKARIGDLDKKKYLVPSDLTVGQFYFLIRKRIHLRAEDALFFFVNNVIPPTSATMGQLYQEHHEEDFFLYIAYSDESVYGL
UniProt P02931, sequence (whole entry, looked up): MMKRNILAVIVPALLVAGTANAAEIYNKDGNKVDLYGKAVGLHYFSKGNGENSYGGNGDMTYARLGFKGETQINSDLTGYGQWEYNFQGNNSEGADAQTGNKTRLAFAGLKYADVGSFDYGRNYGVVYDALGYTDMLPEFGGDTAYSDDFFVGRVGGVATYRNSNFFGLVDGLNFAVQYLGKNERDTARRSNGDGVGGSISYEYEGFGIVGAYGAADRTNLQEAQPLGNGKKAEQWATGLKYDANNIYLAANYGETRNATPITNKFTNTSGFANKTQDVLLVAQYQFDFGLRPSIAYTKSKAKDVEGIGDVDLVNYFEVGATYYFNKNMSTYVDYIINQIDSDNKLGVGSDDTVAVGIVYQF
UniProt Q9NZQ7, sequence (whole entry, looked up): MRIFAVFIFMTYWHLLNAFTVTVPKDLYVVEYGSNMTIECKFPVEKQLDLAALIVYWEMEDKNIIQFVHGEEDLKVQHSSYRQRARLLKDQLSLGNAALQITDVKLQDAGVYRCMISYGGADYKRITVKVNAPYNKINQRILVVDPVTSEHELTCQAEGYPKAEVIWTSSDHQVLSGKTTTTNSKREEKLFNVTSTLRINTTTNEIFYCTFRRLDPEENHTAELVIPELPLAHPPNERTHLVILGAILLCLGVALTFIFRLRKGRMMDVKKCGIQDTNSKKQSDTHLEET
UniProt O75151, sequence (whole entry, looked up): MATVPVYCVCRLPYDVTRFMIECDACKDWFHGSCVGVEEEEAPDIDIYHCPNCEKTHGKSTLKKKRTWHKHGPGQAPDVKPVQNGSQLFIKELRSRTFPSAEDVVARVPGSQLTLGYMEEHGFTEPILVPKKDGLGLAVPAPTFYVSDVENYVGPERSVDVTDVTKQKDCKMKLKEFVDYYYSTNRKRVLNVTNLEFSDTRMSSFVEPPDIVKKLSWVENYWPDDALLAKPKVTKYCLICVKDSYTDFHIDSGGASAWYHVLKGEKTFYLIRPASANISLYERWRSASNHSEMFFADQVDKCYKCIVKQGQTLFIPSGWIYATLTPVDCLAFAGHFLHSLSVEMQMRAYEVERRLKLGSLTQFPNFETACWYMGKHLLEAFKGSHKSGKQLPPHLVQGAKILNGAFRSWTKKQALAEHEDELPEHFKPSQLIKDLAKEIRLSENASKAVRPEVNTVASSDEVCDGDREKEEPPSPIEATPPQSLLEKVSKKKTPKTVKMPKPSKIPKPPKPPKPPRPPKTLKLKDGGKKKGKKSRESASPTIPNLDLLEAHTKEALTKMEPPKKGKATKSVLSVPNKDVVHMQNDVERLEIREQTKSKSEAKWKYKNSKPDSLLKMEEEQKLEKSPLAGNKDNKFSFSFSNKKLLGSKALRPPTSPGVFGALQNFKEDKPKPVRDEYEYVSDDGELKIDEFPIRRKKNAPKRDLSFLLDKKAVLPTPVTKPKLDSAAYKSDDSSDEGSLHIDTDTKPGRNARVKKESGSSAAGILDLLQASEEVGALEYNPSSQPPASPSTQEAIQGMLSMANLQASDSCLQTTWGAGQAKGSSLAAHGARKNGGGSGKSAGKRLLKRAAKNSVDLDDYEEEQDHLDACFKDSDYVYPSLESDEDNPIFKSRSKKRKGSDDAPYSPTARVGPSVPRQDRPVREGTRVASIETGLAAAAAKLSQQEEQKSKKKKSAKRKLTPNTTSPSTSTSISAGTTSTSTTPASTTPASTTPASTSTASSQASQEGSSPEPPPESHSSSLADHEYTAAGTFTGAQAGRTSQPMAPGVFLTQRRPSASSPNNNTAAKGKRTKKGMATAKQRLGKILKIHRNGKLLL

Molecule	partner	test	system	conditions	Kd
MAPRGFSCLLLLTGEIDLPVKRRA (MT-RNR2 residues 1-24 S14G)	Aβ42, FITC label (UniProt P05067)	MST	peptide	10 min, 25 °C, added: FITC-Aβ42 50 nM	118 µM
CDYIPYLAYYNPNTYFQ (designed peptide)	ERBB2 fragment (Homo sapiens)	SPR	peptide	–	0.0906 µM
CHN2 fragment P53A	NCK1 fragment (Homo sapiens)	SPR	–	–	3 ± 2 µM
RRRRRRRRRDQKLMEF (INCENP residues 16-22; N-acetyl, D-Arg9, aminohexanoic linker, C-amide)	BIRC5	QCM	peptide	–	0.0682 µM
SNDAYNFNLEEGVHL[pT]PFR (SGO1 331-349 (Homo sapiens, UniProt Q5FBB7); pT346; pT = C[C@@H](OP(=O)(O)O)[C@H](N)C(=O)O)	T1, STAG2/RAD21 STAG2 80-1060, RAD21 281-420 (Homo sapiens)	ITC	peptide	one-site fit	2.32 µM
EKGEVEESEYVVITVRNEP (FNIP2 558-576 (Homo sapiens, UniProt Q9P278))	GABARAP (Homo sapiens, UniProt O95166)	competition in solution, SPR	peptide	single-site fit	6.2 ± 3 µM
CD24/Siglec-10 blocking peptide, D-amino acids	CD274 (Homo sapiens, UniProt Q9NZQ7)	MST	–	–	7.53 µM
{FITC-Ahx}-LWGFLSRNKKPRICTREEF (NS5 NLS central peptide (dengue virus 1); N-terminal FITC, AHX linker; FITC = O=C1OC2(c3ccc(O)cc3Oc3cc(O)ccc32)c2ccc(NC(=S)*)cc21; Ahx = NCCCCCC(=O)O)	KPNA4 fragment (Homo sapiens)	fluorescence polarisation	peptide	pH 8, one-site fit	0.4 ± 0.1 µM
B1 (colicin N T and R domains)	ompF mature, trimer (Escherichia coli, UniProt P02931)	ITC	–	25 °C	1.6 µM
YGQEDIDVMGL (SAG residues 67-77 (Bos taurus))	RHO Meta II	Extra Meta II assay	peptide, native disc membranes	pH 8.0, 0 °C	800 µM
DVKLEFFGFEDHETGGDEGGSGSSNYKIKYFGFDDLSESED (WAPL 423-463 (Homo sapiens, UniProt Q7Z5K2))	T1, STAG2/RAD21 STAG2 80-1060, RAD21 281-420 (Homo sapiens)	ITC	peptide	one-site fit	32.8 µM
ARTK(me3)QTARKSTG (H3C1 2-13 (UniProt P68431); K4me3)	PHF2 1-451 (Homo sapiens, UniProt O75151)	ITC	peptide	25 °C, NaCl 300 mM, one-site fit	0.16 µM
DQK[Ac5c]MEF-NH2 (INCENP residues 16-22 cycloleucine substitution; C-amide; Ac5c = NC1(C(=O)O)CCCC1)	BIRC5	QCM	peptide	–	0.0971 µM
TLGLRPVPVATT (designed peptide)	ALB (Homo sapiens, UniProt P02768)	ITC	peptide	pH 7.4, 25 °C, low c value	130 µM
ACE2/pIgR VHH6 Fc fusion ACE2 , Fc at C-terminus (Homo sapiens)	PIGR (Homo sapiens, UniProt P01833)	BLI	–	–	200 µM
C3 fragment (Homo sapiens)	sbi fragment (Staphylococcus aureus)	SPR	–	NaCl 75 mM, half-physiological salt	0.9 µM
IKENLKDCGLF (GNAT1 residues 340-350)	RHO Meta II	Extra Meta II assay	peptide, native disc membranes	pH 8.0, 0 °C	180 µM
B2 (lin-42 402-475)	CSNK1D catalytic domain 1-317 (UniProt P48730)	BLI	–	kinetic analysis	0.348 µM

Excerpt of the above:
Molecule	partner	test	system	conditions	Kd
MAPRGFSCLLLLTGEIDLPVKRRA (MT-RNR2 residues 1-24 S14G)	Aβ42, FITC label (UniProt P05067)	MST	peptide	10 min, 25 °C, added: FITC-Aβ42 50 nM	118 µM
RRRRRRRRRDQKLMEF (INCENP residues 16-22; N-acetyl, D-Arg9, aminohexanoic linker, C-amide)	BIRC5	QCM	peptide	–	0.0682 µM
